# Assay results gathered from unrelated publications.
# Protocols differ between the studies behind these lines. ± gives the spread as reported.
# ABCB1: ATP-dependent translocase ABCB1 (ABCB1, Homo sapiens, UniProt P08183)
# Cytochrome P450 2A13: Cytochrome P450 2A13 (Homo sapiens, UniProt Q16696)
Structure (SMILES),target,test,system,conditions,scale,endpoint,value
CC[C@H](C)[C@H](NC(=O)[C@H](Cc1ccccc1)NC(=O)[C@H](CCC(=O)O)NC(=O)[C@H](CCCCN)NC(=O)[C@H](C)NC(=O)[C@H](C)NC(=O)[C@H](CCC(N)=O)NC(=O)CNC(=O)[C@H](CCC(=O)O)NC(=O)[C@H](CC(C)C)NC(=O)[C@H](Cc1ccc(O)cc1)NC(=O)[C@H](CO)NC(=O)[C@H](CO)NC(=O)[C@@H](NC(=O)[C@H](CC(=O)O)NC(=O)[C@H](CO)NC(=O)[C@@H](NC(=O)[C@H](Cc1ccccc1)NC(=O)[C@@H](NC(=O)CNC(=O)[C@H](CCC(=O)O)NC(=O)[C@H](C)NC(=O)N(N)Cc1c[nH]cn1)[C@@H](C)O)[C@@H](C)O)C(C)C)C(=O)N[C@@H](C)C(=O)N[C@@H](Cc1c[nH]c2ccccc12)C(=O)N[C@@H](CC(C)C)C(=O)N[C@H](C(=O)N[C@@H](CCCNC(=N)N)C(=O)NCC(=O)N[C@@H](CCCNC(=N)N)C(=O)NCC(=O)O)C(C)C,"Dipeptidyl peptidase 4 (DPP4, Homo sapiens, UniProt P27487)",HPLC-UV,Tris-HCl,"0.1 mM, 4 h, pH 7.4, 37 °C, added: DPP4 16 nM",,remaining peptide,100%
NC(=O)c1ncn([C@@H]2O[C@H](CO)[C@@H](O)[C@H]2O)n1,ABCB1,"transport, inhibitor",,"100 µM, 5 (unit not given), pH 7, added: NMN",,inhibition,67.9%
CC(C)OC(=O)[C@H](C)NP(=S)(Oc1ccc(CCN2CCOCC2)cc1)c1ccccc1 (some centres unmarked),"Lysosomal protective protein (CTSA, Homo sapiens, UniProt P10619)","substrate, LC-MS/MS",,"5 µM, pH 7.4, 37 °C",,half-life,45 min
c1nc[nH]n1,"Cytochrome P450 2A6 (CYP2A6, Homo sapiens, UniProt P11509)",binding,,,,Kd,283 µM
Cc1cc2nc3c(=O)[nH]c(=O)nc-3n(C[C@H](O)[C@H](O)[C@H](O)COP(=O)(O)O)c2cc1C,"Iodotyrosine deiodinase (Haliscomenobacter hydrossis, UniProt F4KU78, R38E)","bound cofactor redox, redox titration",,"pH 7.4, 25 °C, anaerobic, no substrate",,midpoint potential,-218 ± 2 mV
C#CCOCc1ccc2ccccc2c1,Cytochrome P450 2A13,"enzyme activity, inhibitor",,added: 10 µM coumarin,,IC50,30 to 90 µM
CCOC(=O)C1=C[C@@H](OC(CC)CC)[C@H](NC(C)=O)[C@@H](N)C1,ABCB1,"transport, inhibitor",,"100 µM, 5 (unit not given), pH 7, added: NMN",,inhibition,69.5%
C#CCOCc1ccccc1-c1ccccc1,Cytochrome P450 2A13,"enzyme activity, inhibitor",,added: 10 µM coumarin,,IC50,15 to 80 µM
Oc1cc(Cl)c(-c2ccc(Cl)cc2Cl)c(Cl)c1O,cytochrome P450,GC-MS,"rat, Sprague-Dawley, male, corn oil-pretreated, liver microsomes","50 µM, 2 h, 37 °C",,metabolite formation,not detected
CCCCCCCCc1ccc(CCC(N)(CO)CO)cc1,ABCB1,"transport, inhibitor",,"100 µM, 5 (unit not given), pH 7, added: NMN",,inhibition,53%
O=c1ccc2ncc(=O)n3c2n1C[C@H]3CN1CCC(NCc2cc3c(cn2)OCCC3)CC1,ABCB1,substrate,transporter-overexpressing cell monolayers,,,efflux ratio,11 to 15
CCN(CCO)CCCC(C)Nc1ccnc2cc(Cl)ccc12 (centres unmarked),ABCB1,"transport, inhibitor",,"100 µM, 5 (unit not given), pH 7, added: NMN",,inhibition,81.6%
C=C1CC[C@@H]2[C@](C)(CO)[C@H](O)CC[C@@]2(C)[C@@H]1/C=C/C1=CCOC1=O,"UDP-glucuronosyltransferase 2B7 (UGT2B7, Homo sapiens, UniProt P16662)","AZT glucuronidation, inhibitor",human liver microsomes,added: zidovudine substrate,,Ki,90.4 µM
O=C1CC(c2ccccc2)Oc2ccccc21 (centres unmarked),Cytochrome P450 2A13,"coumarin 7-hydroxylation, inhibitor",,"20 min, 37 °C, added: 10 µM coumarin",,IC50,4.3 µM
CC(C)CC(=O)OC[C@H]1O[C@@](C#N)(c2ccc3c(N)ncnn23)[C@H](O)[C@@H]1O,ABCB1,,Caco-2,"90 µM, 2 h",,efflux ratio,9.16
Cc1ccc2cc(N3CCC4(O)C(=O)c5cc(C)c(C)cc5N=C34)ccc2n1 (centres unmarked),cytochrome P450,inhibitor,,,,IC50,> 100 µM
COc1ccc2cc1Oc1ccc(cc1)C[C@H]1c3cc(c(OC)cc3CCN1C)Oc1c(OC)c(OC)cc3c1[C@H](C2)N(C)CC3,ABCB1,"transport, inhibitor",,"10 µM, added: NMN",,inhibition,90.2%
C#CCOc1ccccc1-c1ccccc1OCC#C,Cytochrome P450 2A13,"enzyme activity, inhibitor",,added: 10 µM coumarin,,IC50,> 80 µM
Clc1cccc(-c2cccc(Cl)c2)c1,"Nuclear receptor subfamily 1 group I member 3 (Homo sapiens, UniProt Q14994)","CYP2B6 mRNA induction, activator, qRT-PCR",differentiated HepaRG,24 h,baseline: phenobarbital,EC25,26 µM
COc1cc2c(c(OC)c1OC)-c1ccc(OC)c(=O)cc1[C@@H](NC(C)=O)CC2,ABCB1,"transport, inhibitor",,"100 µM, 5 (unit not given), pH 7, added: NMN",,inhibition,70.5%
C[C@@H]1CC[C@]2(C(=O)O)CC[C@]3(C)C(=CC[C@@H]4[C@@]5(C)CC[C@H](O)[C@@](C)(CO)[C@@H]5CC[C@]43C)[C@@H]2[C@]1(C)O,CYP3A4/5,"midazolam 1'-hydroxylation, mechanism-based inhibitor, probe cocktail incubation",pooled human liver microsomes,"5 µM, 20 min, 30 min pre-incubation, added: midazolam 1.535 µM",,remaining activity,85.1%
CC[C@H]1OC(=O)[C@H](C)[C@@H](O[C@H]2C[C@@](C)(OC)[C@@H](O)[C@H](C)O2)[C@H](C)[C@@H](O[C@@H]2O[C@H](C)C[C@H](N(C)C)[C@H]2O)[C@](C)(O)C[C@@H](C)CN(C)[C@H](C)[C@@H](O)[C@]1(C)O,ABCB1,"transport, inhibitor",,"50 µM, added: NMN",,inhibition,74%
CN(C)C1CCN(C(=O)c2cc3ccccc3n2CC2CCCCC2)CC1,"CYP3A, human",,,"10 µM, 5 (unit not given)",,inhibition,41.7%

# A few entries again:
Structure (SMILES),target,test,system,conditions,scale,endpoint,value
C=C1CC[C@@H]2[C@](C)(CO)[C@H](O)CC[C@@]2(C)[C@@H]1/C=C/C1=CCOC1=O,"UDP-glucuronosyltransferase 2B7 (UGT2B7, Homo sapiens, UniProt P16662)","AZT glucuronidation, inhibitor",human liver microsomes,added: zidovudine substrate,,Ki,90.4 µM
